Assay results pooled from the literature.
Target: Kappa-type opioid receptor (OPRK1, Homo sapiens, UniProt P41145)
UniProt P41145, sequence (whole entry, looked up): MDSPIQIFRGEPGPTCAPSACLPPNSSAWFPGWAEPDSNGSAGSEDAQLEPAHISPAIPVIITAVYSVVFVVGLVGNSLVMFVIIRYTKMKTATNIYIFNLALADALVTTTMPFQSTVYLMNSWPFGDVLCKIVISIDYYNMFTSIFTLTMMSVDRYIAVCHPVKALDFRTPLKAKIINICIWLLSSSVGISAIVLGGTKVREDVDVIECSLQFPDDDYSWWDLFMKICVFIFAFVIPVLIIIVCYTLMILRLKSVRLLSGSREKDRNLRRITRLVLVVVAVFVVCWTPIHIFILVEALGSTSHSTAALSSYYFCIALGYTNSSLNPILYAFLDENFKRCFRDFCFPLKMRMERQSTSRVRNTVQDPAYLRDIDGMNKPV

Compound	test	system	conditions	scale	quantity	result
COc1ccc(C#CC2=C[C@H]3C[C@@]4(OC(=O)C=C24)[C@H]2CC[C@H](C(OC)OC)N32)cc1	ligand displacement, radioligand	–	10 µM	–	inhibition	30%
NC(=O)c1cccc(CN(Cc2ccc(Cl)c(Cl)c2)C(=O)NC(CN2CCCCC2)c2ccccc2)c1 (stereo not drawn)	cell-based	–	unit not given	higher = arrestin bias	Δlog(RA) arrestin minus Gi	-0.82
O=C1c2sc(-c3ccc(N4CCC(CO)CC4)nc3F)nc2CCN1c1cccnc1	ligand displacement, radioligand	–	1 µM	–	inhibition	5%
Cc1[nH]nc2c1N=C(c1ccccc1Cl)c1cnc(N3CCOCC3)cc1N2	cell-free assay	–	10 µM	–	inhibition	4%
COc1ncc2nc(C)n(Cc3ncc(S(N)(=O)=O)cc3F)c2c1-c1ccccc1	antagonist, cell-based	–	10 µM	–	inhibition	-1.71%
COCC(=O)N1CCc2cc(-c3csc(NC(=O)c4cc(OC)cc(OC)c4)n3)ccc21	cell-free assay	–	10 µM	–	inhibition	2%
NC(=O)c1cccc(CN(C(=O)NC(CN2CCCCC2)c2ccccc2)C(CN2CCCCC2)c2ccccc2)c1 (stereo not drawn)	Gi signalling	–	–	reference: reference agonist	delta log(tau/KA)	-0.84
C[Si](C)(C)C[C@@H](CN)CC(=O)O	ligand displacement, radioligand	–	75 µM	–	inhibition	0%
CC(=O)C12NC(C)(C)CC1(C)C(=O)C1=C2c2c(c3c4n2C(C)(C)CC2=C4C4(CC(C)(C)NC(C)(C4)C2=O)CC3(C)C)C(=O)C(C)(C)N1 (single isomer, unassigned; (+))	cAMP level, agonist, LANCE Ultra cAMP	CHO	50 µM	–	activation	5.6%

A few entries again:
Compound	test	system	conditions	scale	quantity	result
COCC(=O)N1CCc2cc(-c3csc(NC(=O)c4cc(OC)cc(OC)c4)n3)ccc21	cell-free assay	–	10 µM	–	inhibition	2%
